Measured values from different studies.
Numbered parts are unrelated; each lists some results of a single study. Positions count from the first letter of the parent shown.

Sample 1
Target: Sal-like protein 4, full length isoform B (SALL4, Homo sapiens, UniProt Q9UJQ4-2, residues 1-616)
Method: universal PBM
Molecule type: double-stranded DNA, one strand shown
Medium: in vitro
Tested at: not given
Notes: 8-mer, flanks averaged, mean of replicates
Direction: higher = stronger binding
Residues (chain): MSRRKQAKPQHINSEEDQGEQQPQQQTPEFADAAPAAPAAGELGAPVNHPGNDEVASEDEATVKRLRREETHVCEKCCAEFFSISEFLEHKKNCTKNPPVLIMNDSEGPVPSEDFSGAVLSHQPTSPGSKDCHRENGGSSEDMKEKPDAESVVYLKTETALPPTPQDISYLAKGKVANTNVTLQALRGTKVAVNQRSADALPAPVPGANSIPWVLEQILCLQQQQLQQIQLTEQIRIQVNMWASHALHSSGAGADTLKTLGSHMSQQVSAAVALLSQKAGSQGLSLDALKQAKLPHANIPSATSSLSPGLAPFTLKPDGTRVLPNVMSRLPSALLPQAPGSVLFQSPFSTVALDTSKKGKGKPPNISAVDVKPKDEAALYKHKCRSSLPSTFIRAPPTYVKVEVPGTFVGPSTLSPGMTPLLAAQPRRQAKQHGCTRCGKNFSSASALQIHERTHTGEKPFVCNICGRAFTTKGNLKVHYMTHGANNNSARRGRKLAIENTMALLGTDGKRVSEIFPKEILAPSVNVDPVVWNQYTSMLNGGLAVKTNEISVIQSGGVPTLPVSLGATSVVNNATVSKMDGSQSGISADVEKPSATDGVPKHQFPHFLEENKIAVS
Sequence	E-score
CAAGCATG	0.0711
GTCGTCAC	0.00402
GCAGTAGC	-0.141
GATAGACC	0.0226
CCACGCCG	-0.287
ACACCTGA	-0.0866
AGGAGCAT	0.0238
AAACGTTA	0.246
AGCCCATA	0.0673
ATTAGTCG	0.107
GAGTCATC	-0.185
TCGGGAAA	-0.0591
AAACTTGT	0.29
GACTCCAA	-0.151
CCCCCGGA	-0.264
CCGTGACG	-0.155
CAGTAGCA	-0.0592
CAGGCGCC	-0.263
AATGCGGA	-0.0322
CGCCACGC	-0.351

Sample 2
Target: RNA binding protein fox-1 homolog 2, RRM domain, GST-SBP tag (RBFOX2, Homo sapiens, UniProt O43251-10, residues 100-194)
Method: RNA Bind-n-Seq
Molecule type: RNA
Medium: in vitro
Tested at: 365 nM
Notes: natural RNA segment, single round, ends assumed
Baseline: no-protein control
Direction: higher = stronger binding
Target sequence (chain): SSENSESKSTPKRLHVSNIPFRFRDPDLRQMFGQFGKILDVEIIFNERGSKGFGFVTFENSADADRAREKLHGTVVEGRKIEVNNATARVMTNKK
Sequence	RBNS enrichment (R)
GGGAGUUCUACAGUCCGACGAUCGGACUGUGAUGUCAUAUUAUUCAGUUUUAUGCUUGUUCCUGAGCAGAACUCAUAAGAGUGACAUAGUCAGCUGCUGACGGCACCUCAGCCACGCCACUCUUACUCAGUUCUGGAAUUCUCGGGUGCCAA	1.02
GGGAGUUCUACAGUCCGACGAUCUGGUGACUAUCCUGCCUUAAUCACUUUGCUUUAGGGCAACUCAUGGUGAUCUCUUCCAAGAUCUGUUUUUAAAUUGUUUGGACUACUUGAGCCACAACUCUCAGAGGACAUGGAAUUCUCGGGUGCCAA	0.31
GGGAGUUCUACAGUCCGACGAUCAUGAAUAGUAAGACCUAAUAAUUCCUGGCUUAAAGAAACUGAAGGAAUUACUCUUUUAGAGAAAAACACUGGAAAUUUUGCUAACACAAUACUUAAAAGUAUAUAGUUGGUGGAAUUCUCGGGUGCCAA	0.309
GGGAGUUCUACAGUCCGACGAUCUUUAUUGAGUGAAGCCUUAAAAAGCACACACCACACACAGCUAACUGCCAAAAUACAUUGACCGUAGUAGCUGUUCAACUCCUAGUACUUAGAAAUACACGUAUGGUUAAUGGAAUUCUCGGGUGCCAA	0.699
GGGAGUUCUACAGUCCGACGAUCUGUGUCUGUCUGUUCGUCUGUCCACCUAUCUUUGUGGAAGUCACUGUGAUGGUAGUGACUUUAUGAGUUGUGAAUGGUCCUUGGCAGUCUGCCUGCUUUCUCAGAGUCUGUGGAAUUCUCGGGUGCCAA	1.78
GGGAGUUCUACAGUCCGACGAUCGAUUCUGAGGAUUUGUUUAACUAAAAAGUUCCCAAACACAGAAAGGGCCUCCCCACCUGCUUUGGGGAGCUGUCUGUGCUGGGAGUGCCAGGCAUCCCAUGGGACCCAUCUGGAAUUCUCGGGUGCCAA	0.169
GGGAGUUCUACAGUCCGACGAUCUUUGGAUUCCUAACCUUAAGUGAGCUGUAAACAAUGUGAAUGGAGCUCUGGCCAGUCACCUUUAACCCAGCAGCUUGGGUUCAGUGUCACCUACGGAUUAUUUCUCUUUCUGGAAUUCUCGGGUGCCAA	0.262
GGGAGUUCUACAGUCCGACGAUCCUACAACUGAAGCCAGAAAAGUGAUAUUGUUUAAAUUUCAAGGACAUUAAUAUUAUUAAUAUAAUAAUGGUGAUGGUGAUGAUGAAAACUGAGGACUUUAAAAGAGAUUUUGGAAUUCUCGGGUGCCAA	0.628
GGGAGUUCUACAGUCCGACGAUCCCAAGUCCUAGGAAAUAAUGCUUGUAAUAAACUUAACUGUGUUACAUCAGUAGGUAAAAUACAUAAUGUUACAUAGUGUAAUAUGAUAUGAUGUGAUUAAAUUAUAGUUCUGGAAUUCUCGGGUGCCAA	0.373
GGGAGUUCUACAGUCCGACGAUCGGACAGCCCCGCCAUGGCCACAGACUCUGUCCUCACCUUUGAUUGUCAGGAUGACAGCCCCCACCACCAUGAUGAGCGUCUGCAGGGCGUCCGUGUAGAUUACAGCAGCCUGGAAUUCUCGGGUGCCAA	0.746
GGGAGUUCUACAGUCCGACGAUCGUCUGCAGUAUUCAUUUUAAAAAUAUUGACAUGCUUUUCCCCUCCCCUCCAUGAAGUCAGUGCCAGAGUGAGCCAGAUUGGGAGGUUGGGGUUUUGUUUGGUUGGCUUGGUGGAAUUCUCGGGUGCCAA	1.42
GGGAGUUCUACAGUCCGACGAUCUUCUAUUAUGACAUGUACCUCGAAGAAGGGGGUGUGUCUAGCAAUGAUUUCUCUUCUCUGGAGGCUUUGUGUAAGAAAAUCAUUAAAGAAAAACAAGCUUUUGAAAGACUUGGAAUUCUCGGGUGCCAA	0.601

Sample 3
Target: Interferon regulatory factor 7, full length, phosphomimetic (IRF7, Homo sapiens, UniProt Q92985, residues 1-503, S471D/S472D/S475D/S476D/S477D/S483D/S484D/S487D)
Method: protein-binding microarray
Molecule type: double-stranded DNA, one strand shown
Medium: in vitro
Tested at: 2200 nM top
Notes: 60-bp whole probe
With: salmon DNA 0.4 mg/ml
Baseline: random background probes
Direction: higher = stronger binding
Shared flanks, not repeated: GCCTAGCAC … GTCTTGATTCGCTTGACGCTGCTG
Residues (chain): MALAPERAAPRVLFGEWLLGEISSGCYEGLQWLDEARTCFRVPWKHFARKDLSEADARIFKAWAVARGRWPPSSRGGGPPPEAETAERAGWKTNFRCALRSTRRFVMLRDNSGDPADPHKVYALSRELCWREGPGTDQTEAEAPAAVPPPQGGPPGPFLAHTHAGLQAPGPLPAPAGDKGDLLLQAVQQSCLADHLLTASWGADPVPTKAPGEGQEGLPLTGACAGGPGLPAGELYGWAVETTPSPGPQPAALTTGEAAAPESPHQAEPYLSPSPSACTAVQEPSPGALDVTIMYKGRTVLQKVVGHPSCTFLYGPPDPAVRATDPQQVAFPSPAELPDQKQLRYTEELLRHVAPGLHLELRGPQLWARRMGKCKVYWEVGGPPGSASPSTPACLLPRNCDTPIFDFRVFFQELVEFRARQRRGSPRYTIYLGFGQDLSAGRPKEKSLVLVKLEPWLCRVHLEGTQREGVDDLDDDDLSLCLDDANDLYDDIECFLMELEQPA
Sequence	fitted relative affinity
GAGTGGTTCTGCTTCTTAGCGTGCTAG	0.728 z-score
TCAAAACTCGTGTTTTTCACTGTGCTA	0.712 z-score
GACGATATCAGTATTGAGACGTGCTAG	0.0516 z-score
CTAGATATCAGACTGGATTAGTGCTAG	0.114 z-score
GAACATACTAATTTCCATTTGTGCTAG	2.43 z-score
TTAGGACTGGGGACTTGGTTAGTGCTA	-0.875 z-score
TTAGGACTGGGTATCGGTTTGTGCTAG	0.667 z-score
GACCGACTGGGTATCGGGACGTGCTAG	-0.425 z-score
TTAGGTATCGGGTATCGGTCAGTGCTA	0.342 z-score
GCACTGTGCCTGCTGCCCTTGTGCTAG	0.373 z-score
GACGGACTGCTTATCCTTACGTGCTAG	0.453 z-score
TCAGGTCTCCTTCTCCTTTAGTGCTAG	1.44 z-score
TTAGGACTGGACTATCTGTTAGTGCTA	-0.292 z-score
TTAGGAATCGGTATCGGTTAGTGCTAG	0.402 z-score
TCCATTTCTGTTTTTGCTTTGTGCTAG	5.48 z-score
TTAGGTTTCGGATTTCGGTTAGTGCTA	7.62 z-score

Sample 4
Target: CCNB3, cyclin fold, Cln2 fusion (human)
Method: yeast growth competition, sequencing
Medium: yeast
Notes: strong parent motif
Baseline: not given
Direction: higher = stronger binding
Starting sequence: RBL2 docking peptide (human); STTRRRLFVENDS
Change	normalised enrichment score
R5T	0.757
S1F	1.34
R6Y	0.163
R4Q	0.157
T2K	1.81
D12A	0.461
V9E	0.742
E10S	0.905
V9T	1.38
S1A	0.84
S1G	1.13
R5I	0.115
R5Y	0.234
D12T	0.437
E10T	0.0533
R6P	0.00507

Sample 5
Target: Ras GTPase-activating protein-binding protein 1, full length (G3BP1, Homo sapiens, UniProt Q13283)
Chain of UniProt Q13283 (whole entry, looked up): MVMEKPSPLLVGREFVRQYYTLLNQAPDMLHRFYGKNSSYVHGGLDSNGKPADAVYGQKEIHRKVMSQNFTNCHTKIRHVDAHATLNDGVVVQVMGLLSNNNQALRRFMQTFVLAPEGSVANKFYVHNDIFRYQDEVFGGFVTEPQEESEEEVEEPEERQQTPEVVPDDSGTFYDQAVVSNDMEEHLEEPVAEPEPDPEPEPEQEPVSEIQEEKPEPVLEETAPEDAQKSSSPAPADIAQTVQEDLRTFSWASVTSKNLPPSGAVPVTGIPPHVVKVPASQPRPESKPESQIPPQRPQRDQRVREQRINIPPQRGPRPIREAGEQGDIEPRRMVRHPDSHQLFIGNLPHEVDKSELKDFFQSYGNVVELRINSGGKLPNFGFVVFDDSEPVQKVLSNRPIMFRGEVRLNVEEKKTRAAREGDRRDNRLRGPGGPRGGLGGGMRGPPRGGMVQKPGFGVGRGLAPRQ
Method: RNA Bind-n-Seq
Molecule type: RNA
Medium: in vitro
Tested at: 200 nM
Notes: whole 134-nt RNA, ends assumed
With: 150 mM KCl
Baseline: input library
Direction: higher = stronger binding
Sequence	log2 enrichment
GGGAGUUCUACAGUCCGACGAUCUGGCCCUGGUGGCAUGCGGGGAGGAAGAGGUGGCCUCAUGGAUCGUGGUGGUCCCGGUGGAAUGUACAGAGGUGGCCGUGGUGGAGACAGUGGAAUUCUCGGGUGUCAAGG	0.224
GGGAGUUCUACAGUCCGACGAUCCAGCAGCAGAGUGAGUGGAUUUUAUUUUUCGUUAUUGUUGGUGGUUUAAAAAAUUCCCCCCAUGUAAUUAUUGUGAACACCUUGCUUUGUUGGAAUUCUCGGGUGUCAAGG	-0.307
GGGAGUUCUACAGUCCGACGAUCUCAAGUCCUGUGCUACACAUCGUAUGUACCGAAUCGGGGCGGGGCGGGGCGGGGAAAGUAUUAUGUUACGCCGUUCGGAUCUGCACUUCCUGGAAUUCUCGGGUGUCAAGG	1.69
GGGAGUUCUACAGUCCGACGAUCAGUCCUGUGCUACACAUCGUAUGUACCGAAUCGGAAAAAGGAAAAAGGGAAAAAGGGAAAGUAUUAUGUUACGCCGUUCGGAUCUGCACUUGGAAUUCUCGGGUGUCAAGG	-1.2
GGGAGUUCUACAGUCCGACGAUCCUGUGCUACACAUCGUAUGUACCGAAUCGGGGCCCCCCCGGCCCCCCCGGGCCCCCCCGGGGAAAGUAUUAUGUUACGCCGUUCGGAUCUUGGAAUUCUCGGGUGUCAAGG	-1.02
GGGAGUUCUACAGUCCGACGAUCUCCUGUGCUACACAUCGUAUGUACCGAAUCGGGGAAAAAGGGAAAAAGGGAAAAAGGGGAAAGUAUUAUGUUACGCCGUUCGGAUCUGCAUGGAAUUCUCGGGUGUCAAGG	0.175
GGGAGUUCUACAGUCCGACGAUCCUGUGCUACACAUCGUAUGUACCGAAUCGGGUUUUUUUGGGGUUUUUUUGGUUUUUUUGGGAAAGUAUUAUGUUACGCCGUUCGGAUCUGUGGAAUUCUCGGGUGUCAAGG	-0.945
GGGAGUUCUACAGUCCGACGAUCUAACGUUAGAGGAGGAUCUGAUGGAUAUGGCAGUGGACGUGGAUUUGGGGAUGGCUAUAAUGGGUAUGGAGGAGGACCUGGAGGUGGCAAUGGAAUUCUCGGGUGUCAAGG	0.372
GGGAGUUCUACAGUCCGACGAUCUUCCUCAAGUCCUGUGCUACACAUCGUAUGUACCGAAUCGGCGGCGGCGGAAAGUAUUAUGUUACGCCGUUCGGAUCUGCACUUCCAGCAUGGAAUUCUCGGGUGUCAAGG	-0.281
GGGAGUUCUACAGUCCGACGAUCCUGUGCUACACAUCGUAUGUACCGAAUCGGGGUUUUUUUGGGUUUUUUUGGUUUUUUUGGGAAAGUAUUAUGUUACGCCGUUCGGAUCUGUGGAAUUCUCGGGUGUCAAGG	-1.04
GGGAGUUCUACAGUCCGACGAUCGAAAUCCACAGGAAAGUGAUGUCACAAAACUUCACCAACUGCCACACCAAGAUUCGCCAUGUUGAUGCUCAUGCCACGCUAAAUGAUGGUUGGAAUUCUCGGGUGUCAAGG	0.236
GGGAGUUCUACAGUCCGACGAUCCACAGACAACACGCACCCACACAGACACAGAGGGAAAGGGUUGGGAUGGGGACAGGGUGCACAGCAGGGCGGGGUAGGACCCCAGCCCCUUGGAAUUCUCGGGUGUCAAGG	1.86
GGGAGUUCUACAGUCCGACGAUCUCCUGUGCUACACAUCGUAUGUACCGAAUCGGGUUUGGGAAAAAAAGGGAAAAAAAGGGAAAGUAUUAUGUUACGCCGUUCGGAUCUGCAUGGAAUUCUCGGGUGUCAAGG	-0.0699
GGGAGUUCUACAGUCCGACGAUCCUCAAGUCCUGUGCUACACAUCGUAUGUACCGAAUCGGGGUGGGUGGGUGGGGAAAGUAUUAUGUUACGCCGUUCGGAUCUGCACUUCCAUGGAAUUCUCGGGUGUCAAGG	0.29
